{"data": "Assay results gathered from unrelated publications", "target": "Amine oxidase [flavin-containing] B (MAOB, Homo sapiens, UniProt P27338)", "mode": "inhibitor", "note": "Each line is one published result; not all experiments were run side by side. “And” joins repeats or separate records; there may be more than shown.", "chain of UniProt P27338 (whole entry, looked up)": "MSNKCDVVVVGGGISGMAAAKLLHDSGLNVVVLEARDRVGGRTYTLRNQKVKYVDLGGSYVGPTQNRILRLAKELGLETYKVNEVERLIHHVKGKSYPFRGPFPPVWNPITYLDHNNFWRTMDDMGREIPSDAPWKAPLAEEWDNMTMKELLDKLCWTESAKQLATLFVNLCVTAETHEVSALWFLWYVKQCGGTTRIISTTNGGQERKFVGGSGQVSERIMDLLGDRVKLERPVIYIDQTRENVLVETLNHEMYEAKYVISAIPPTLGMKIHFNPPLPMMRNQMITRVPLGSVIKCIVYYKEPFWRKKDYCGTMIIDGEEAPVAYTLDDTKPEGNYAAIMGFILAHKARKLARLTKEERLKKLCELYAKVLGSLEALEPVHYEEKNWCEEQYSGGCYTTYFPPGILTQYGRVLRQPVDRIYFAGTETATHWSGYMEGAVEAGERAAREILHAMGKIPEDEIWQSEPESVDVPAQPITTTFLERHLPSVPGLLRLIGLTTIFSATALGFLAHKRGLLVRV"}
{"Structure (SMILES)": "COc1cc(OC2OC(CO)C(O)C(O)C2O)c2c(OC)c(C(C)=O)c(OC3OCC(O)(CO)C3O)cc2c1 (centres unmarked)", "test": "enzyme activity", "IC50": "> 400 µM"}
{"Structure (SMILES)": "COc1cc(/C=C/COC(=O)/C=C/c2ccc(O)c(OC)c2)ccc1O", "test": "enzyme activity, fluorescence", "IC50": "2.03 µM"}
{"Structure (SMILES)": "O=C(/C=C/c1ccc2c(c1)OCCO2)c1cccs1", "test": "enzyme activity, fluorescence", "IC50": "0.61 µM"}
{"Structure (SMILES)": "COc1c(OC2OC(CO)C(O)C(O)C2O)c(C)cc2c1C(=O)c1c(O)cccc1C2=O (centres unmarked)", "test": "enzyme activity", "IC50": "> 400 µM"}
{"Structure (SMILES)": "CCOC1(c2cc(C)cc(OC)c2OC)OC(=O)c2c(OC)cc(OC)cc21 (racemic)", "test": "enzyme activity, fluorescence", "setting": "pH 7.4", "IC50": "16.4 µM and < 20 µM"}
{"Structure (SMILES)": "Cc1cc(O)c2c(c1)C(=O)c1cc(O)c(O)c(O)c1C2=O", "test": "enzyme activity", "IC50": "4.55 µM"}
{"Structure (SMILES)": "CCCCC1OC(=O)C2=CCCCC21 (centres unmarked)", "test": "enzyme activity, fluorescence", "IC50": "0.124 µM"}
{"Structure (SMILES)": "COc1ccc2c(c1)/C(=N/N=C/c1ccc(OCc3ccccc3)cc1)C(=O)N2", "test": "enzyme activity", "IC50": "17.6 µM"}
{"Structure (SMILES)": "COc1cc(C)cc(C2(O)NC(=O)c3c(OCc4ccccc4)cc(OCc4ccccc4)cc32)c1OC (racemic)", "setting": "20 min, pH 7.4, 37 °C, added: kynuramine 30 µM", "IC50": "> 100 µM"}
{"Structure (SMILES)": "O=C(/C=C/c1ccc2c(c1)OCO2)c1ccc(Br)s1", "test": "enzyme activity, fluorescence", "IC50": "0.8 µM"}
{"Structure (SMILES)": "COc1cc(C)cc(C2(O)NC(=O)c3c(OC)cc(OCc4ccccc4)cc32)c1OCc1ccccc1 (racemic)", "setting": "20 min, pH 7.4, 37 °C, added: kynuramine 30 µM", "IC50": "> 100 µM"}
{"Structure (SMILES)": "O=C1Nc2ccc(Br)cc2/C1=N/N=C/c1cccc(OCc2ccccc2)c1", "test": "enzyme activity", "IC50": "8.13 µM"}
{"Structure (SMILES)": "CCC/C=C1\\OC(=O)C2=C1CCC=C2", "test": "enzyme activity, fluorescence", "IC50": "633 µM"}
{"Structure (SMILES)": "O=C1Nc2ccc(F)cc2/C1=N/N=C/c1ccc(OCc2cccc(F)c2)cc1", "test": "enzyme activity", "IC50": "1.19 µM"}
{"Structure (SMILES)": "COc1c(O)c(C)cc2c1C(=O)c1c(O)cc(O)cc1C2=O", "test": "enzyme activity", "IC50": "> 400 µM"}
{"Structure (SMILES)": "COc1cc(OC)cc(C(=O)c2cc(C)cc(OC)c2OC)c1", "test": "enzyme activity, fluorescence", "setting": "pH 7.4", "IC50": "71.9 µM"}
{"Structure (SMILES)": "Cc1ccc2c(c1)/C(=N/N=C/c1ccc(OCc3cccc(F)c3)cc1)C(=O)N2", "test": "enzyme activity", "IC50": "4.1 µM"}
